Published values pooled from the literature.
A part holds a random share of what one study measured.

Block 1 — method: protein-binding microarray; molecule type: hairpin DNA; medium: in vitro; concentration: not given; baseline: not given; reading: higher = stronger binding; quantity: median fluorescence; shared flanks, not repeated: GAGGCCA … TGGCCTCACACTC
Target: GDNF-inducible zinc finger protein 1, full length (GZF1, Homo sapiens, UniProt Q9H116, residues 1-711)
Setting: whole hairpin DNA, median over replicate spots
Construct (chain): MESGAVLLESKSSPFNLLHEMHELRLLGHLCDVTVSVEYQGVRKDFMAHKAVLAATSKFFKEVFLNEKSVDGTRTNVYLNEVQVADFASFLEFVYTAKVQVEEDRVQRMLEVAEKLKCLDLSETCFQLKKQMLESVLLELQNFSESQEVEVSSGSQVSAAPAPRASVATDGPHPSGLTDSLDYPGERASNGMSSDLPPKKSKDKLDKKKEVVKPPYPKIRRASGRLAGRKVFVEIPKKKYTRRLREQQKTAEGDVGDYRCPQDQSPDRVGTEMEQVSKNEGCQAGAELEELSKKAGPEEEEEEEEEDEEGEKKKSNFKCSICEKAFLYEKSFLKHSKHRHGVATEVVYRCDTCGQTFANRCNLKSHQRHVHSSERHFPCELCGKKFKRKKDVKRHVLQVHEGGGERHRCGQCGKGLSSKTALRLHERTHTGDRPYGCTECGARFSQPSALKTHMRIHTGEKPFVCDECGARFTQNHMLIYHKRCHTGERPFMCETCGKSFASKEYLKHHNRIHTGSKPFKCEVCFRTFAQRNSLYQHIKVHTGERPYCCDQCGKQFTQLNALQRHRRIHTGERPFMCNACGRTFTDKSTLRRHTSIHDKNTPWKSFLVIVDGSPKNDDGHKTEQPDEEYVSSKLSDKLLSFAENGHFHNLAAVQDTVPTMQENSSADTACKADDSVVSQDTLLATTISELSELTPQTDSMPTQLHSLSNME
TTACGGTAAGGCCTCCTGGCCTTACCGTAA (5mC at 28): 579 a.u.
TTACGGTAATGCCTCCTGGCATTACCGTAA (5mC at 33): 505 a.u.
TTCGGGTAATGCCTCCTGGCATTACCCGAA (5mC at 10): 502 a.u.
TTACGGTAGTGCCTCCTGGCACTACCGTAA: 669 a.u.
TTTCGGTAATGCCTCCTGGCATTACCGAAA: 468 a.u.
TTACGGTCGTGCCTCCTGGCACGACCGTAA: 602 a.u.
TTACGCTAATGCCTCCTGGCATTAGCGTAA: 415 a.u.
CGACGGTAATGCCTCCTGGCATTACCGTCG (5mC at 8): 785 a.u.

Block 2 — method: aptamer microarray, sandwich; molecule type: DNA with 2'F-ANA; medium: in vitro; concentration: 200 nM; added: Cy3 exosite-II aptamer, 400 nM; reading: higher = stronger binding; quantity: mean fluorescence intensity; oligonucleotide: GGTTGGTGTGGTTGG
Target: Prothrombin, mature alpha-thrombin (F2, Homo sapiens, UniProt P00734)
Setting: whole 15-mer aptamer, many near background
2'F-ANA at 5 6 8 10 12 13: 48.4 a.u.
2'F-ANA at 4 9 10 11 15: 75.3 a.u.
2'F-ANA at 1 4 6 7 9 11 12 13 15: 119 a.u.
2'F-ANA at 1 2 3 4 6 7 8 9 10 11 12 13: 71.4 a.u.
2'F-ANA at 3 5 6 8 9 11 12 14 15: 314 a.u.
2'F-ANA at 4 6 7 12 13 14: 107 a.u.
2'F-ANA at 1 2 4 5 6 8 10 13 15: 48 a.u.
2'F-ANA at 2 3 4 5 6 7 9 10 12 13: 54.3 a.u.

Other studies, line by line
JAK2: Tyrosine-protein kinase JAK2 (JAK2, Homo sapiens, UniProt O60674)
Sequence of UniProt O60674 (whole entry, looked up): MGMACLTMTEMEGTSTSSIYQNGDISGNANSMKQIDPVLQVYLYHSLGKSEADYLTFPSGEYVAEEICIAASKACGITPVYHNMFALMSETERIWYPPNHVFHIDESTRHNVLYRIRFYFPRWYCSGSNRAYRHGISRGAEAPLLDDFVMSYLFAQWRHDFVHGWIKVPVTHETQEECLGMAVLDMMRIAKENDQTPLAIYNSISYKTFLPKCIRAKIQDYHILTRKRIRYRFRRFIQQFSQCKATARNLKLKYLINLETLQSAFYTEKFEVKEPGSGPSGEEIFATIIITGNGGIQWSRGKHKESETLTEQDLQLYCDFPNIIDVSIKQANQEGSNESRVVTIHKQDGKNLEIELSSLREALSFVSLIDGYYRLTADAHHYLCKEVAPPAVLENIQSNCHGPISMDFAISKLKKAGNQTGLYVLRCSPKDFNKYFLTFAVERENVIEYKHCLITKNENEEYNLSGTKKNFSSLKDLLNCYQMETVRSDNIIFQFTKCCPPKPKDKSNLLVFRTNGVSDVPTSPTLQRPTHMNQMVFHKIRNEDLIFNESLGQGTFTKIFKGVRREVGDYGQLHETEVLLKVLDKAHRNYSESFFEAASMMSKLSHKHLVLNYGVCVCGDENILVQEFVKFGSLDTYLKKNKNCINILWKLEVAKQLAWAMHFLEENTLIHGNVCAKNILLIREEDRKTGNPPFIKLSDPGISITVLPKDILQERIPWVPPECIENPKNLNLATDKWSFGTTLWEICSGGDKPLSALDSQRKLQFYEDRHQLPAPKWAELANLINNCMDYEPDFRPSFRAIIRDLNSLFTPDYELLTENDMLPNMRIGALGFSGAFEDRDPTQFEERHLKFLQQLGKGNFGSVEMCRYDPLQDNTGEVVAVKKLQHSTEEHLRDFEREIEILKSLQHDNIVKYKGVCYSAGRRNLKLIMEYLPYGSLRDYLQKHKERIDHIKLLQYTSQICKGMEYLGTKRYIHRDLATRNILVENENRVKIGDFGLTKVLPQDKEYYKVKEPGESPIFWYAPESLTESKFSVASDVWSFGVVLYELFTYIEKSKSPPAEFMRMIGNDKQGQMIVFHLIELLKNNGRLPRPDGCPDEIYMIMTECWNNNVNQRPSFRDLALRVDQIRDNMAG
CC(=O)N1CCC(c2ccc(C(=O)NC(=N)N)cc2C(F)(F)F)CC1
viability (normal adjacent epithelium patient-derived organoids; CellTiter-Glo; 1 µM, mean of five organoid lines; baseline: DMSO): 104%

O=S(=O)(NCCNC/C=C/c1ccc(Br)cc1)c1cccc2cnccc12
remaining activity (JAK2; enzyme activity, inhibitor; 0.5 µM; baseline: control): 109%

CO[C@@H](C)c1c(Nc2ccc([C@@H](N(C)C(=O)C3CCS(=O)(=O)CC3)C(F)(F)F)cc2)cnc2cc(Cl)nn12
viability (normal adjacent epithelium patient-derived organoids; CellTiter-Glo; 1 µM, mean of five organoid lines; baseline: DMSO): 117%

HSP90B1 (Homo sapiens, UniProt P14625)
cross-linked residues (GIMAP2 (Homo sapiens, UniProt Q9UG22); cross-linking MS; cells; added: BSPNO): K87 to K319

CC(=O)Nc1c(C(C)=O)c(=O)n(C)c2nc(-c3ccc(Cl)cc3Cl)c(-c3ccc(Cl)cc3)cc12
viability (normal adjacent epithelium patient-derived organoids; CellTiter-Glo; 1 µM, mean of five organoid lines; baseline: DMSO): 104%

Fc1ccc(-c2nc3n(c2-c2ccncc2)CCS3)cc1
remaining activity (JAK2; enzyme activity, inhibitor; 0.5 µM; baseline: control): 93.6%

For quick reference, copied from above (block 2):
2'F-ANA at 1 4 6 7 9 11 12 13 15: 119 a.u.
